Results from different studies.
Compare with care: the assays were run in different laboratories. Several values in a cell are separate wells, animals, samples, runs or records. Numbers after ± are the reported error.
MAPK8: Mitogen-activated protein kinase 8 (MAPK8, Homo sapiens, UniProt P45983)
Sequence of UniProt P45983 (whole entry, looked up): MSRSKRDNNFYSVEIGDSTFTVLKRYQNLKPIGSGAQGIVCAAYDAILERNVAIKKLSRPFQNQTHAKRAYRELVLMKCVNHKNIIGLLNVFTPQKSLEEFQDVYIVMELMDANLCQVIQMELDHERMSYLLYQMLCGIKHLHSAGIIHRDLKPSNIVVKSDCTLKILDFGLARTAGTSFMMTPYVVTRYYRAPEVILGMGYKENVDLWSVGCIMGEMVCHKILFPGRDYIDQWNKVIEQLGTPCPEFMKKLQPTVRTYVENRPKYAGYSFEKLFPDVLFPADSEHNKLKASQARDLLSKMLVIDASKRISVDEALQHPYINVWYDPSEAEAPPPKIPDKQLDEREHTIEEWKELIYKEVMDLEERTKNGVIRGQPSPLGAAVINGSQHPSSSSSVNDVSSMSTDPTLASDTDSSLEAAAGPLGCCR
Cnr2: Cannabinoid receptor 2 (Cnr2, Mus musculus, UniProt P47936)
Sequence of UniProt P47936 (whole entry, looked up): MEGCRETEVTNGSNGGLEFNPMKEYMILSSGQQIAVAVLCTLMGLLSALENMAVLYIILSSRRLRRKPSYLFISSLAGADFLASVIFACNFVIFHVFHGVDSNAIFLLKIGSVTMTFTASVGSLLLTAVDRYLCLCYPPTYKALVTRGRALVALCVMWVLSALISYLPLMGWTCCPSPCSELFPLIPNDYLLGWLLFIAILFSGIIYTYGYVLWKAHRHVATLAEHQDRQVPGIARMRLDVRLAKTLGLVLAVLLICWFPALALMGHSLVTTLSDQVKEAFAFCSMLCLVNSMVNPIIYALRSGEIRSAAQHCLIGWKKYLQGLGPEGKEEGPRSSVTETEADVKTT
EEF2: Elongation factor 2 (EEF2, Homo sapiens, UniProt P13639)
Dipeptidyl peptidase 8: Dipeptidyl peptidase 8 (Homo sapiens, UniProt Q6V1X1)
Sequence of UniProt Q8H1R0 (whole entry, looked up): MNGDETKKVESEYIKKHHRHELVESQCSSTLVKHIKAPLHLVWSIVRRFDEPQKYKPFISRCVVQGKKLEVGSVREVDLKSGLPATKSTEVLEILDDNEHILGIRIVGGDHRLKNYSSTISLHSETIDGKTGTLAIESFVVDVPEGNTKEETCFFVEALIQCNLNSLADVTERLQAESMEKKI
Sequence of UniProt Q6V1X1 (whole entry, looked up): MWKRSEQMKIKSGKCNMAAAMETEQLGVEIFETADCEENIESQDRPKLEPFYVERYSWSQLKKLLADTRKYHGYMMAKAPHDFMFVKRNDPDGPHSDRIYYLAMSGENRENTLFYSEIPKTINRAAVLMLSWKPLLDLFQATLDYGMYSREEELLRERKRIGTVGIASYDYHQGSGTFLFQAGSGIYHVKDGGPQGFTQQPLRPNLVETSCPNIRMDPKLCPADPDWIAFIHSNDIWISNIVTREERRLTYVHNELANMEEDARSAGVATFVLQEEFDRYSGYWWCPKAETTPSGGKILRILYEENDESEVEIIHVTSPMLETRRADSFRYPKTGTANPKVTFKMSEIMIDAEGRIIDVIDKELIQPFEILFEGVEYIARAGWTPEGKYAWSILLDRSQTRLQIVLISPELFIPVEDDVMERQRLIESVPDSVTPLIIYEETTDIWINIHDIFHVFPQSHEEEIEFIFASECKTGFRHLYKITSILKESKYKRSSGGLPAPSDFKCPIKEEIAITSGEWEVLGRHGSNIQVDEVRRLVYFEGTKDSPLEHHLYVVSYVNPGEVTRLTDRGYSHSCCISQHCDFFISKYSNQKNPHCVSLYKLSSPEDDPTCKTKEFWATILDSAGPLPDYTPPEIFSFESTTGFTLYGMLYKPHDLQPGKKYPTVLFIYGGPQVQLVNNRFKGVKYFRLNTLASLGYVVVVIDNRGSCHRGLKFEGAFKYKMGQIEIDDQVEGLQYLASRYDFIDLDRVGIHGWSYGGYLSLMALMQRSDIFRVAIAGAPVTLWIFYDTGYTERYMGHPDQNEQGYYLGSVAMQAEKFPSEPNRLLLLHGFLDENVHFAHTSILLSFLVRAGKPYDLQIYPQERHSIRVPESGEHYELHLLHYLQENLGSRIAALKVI
Sequence of UniProt Q00765 (whole entry, looked up): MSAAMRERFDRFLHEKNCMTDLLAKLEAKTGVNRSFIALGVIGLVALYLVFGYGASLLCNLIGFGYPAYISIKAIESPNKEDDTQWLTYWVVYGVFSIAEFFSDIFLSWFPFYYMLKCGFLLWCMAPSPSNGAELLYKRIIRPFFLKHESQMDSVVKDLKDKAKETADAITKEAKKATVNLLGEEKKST
Sequence of UniProt O35433 (whole entry, looked up): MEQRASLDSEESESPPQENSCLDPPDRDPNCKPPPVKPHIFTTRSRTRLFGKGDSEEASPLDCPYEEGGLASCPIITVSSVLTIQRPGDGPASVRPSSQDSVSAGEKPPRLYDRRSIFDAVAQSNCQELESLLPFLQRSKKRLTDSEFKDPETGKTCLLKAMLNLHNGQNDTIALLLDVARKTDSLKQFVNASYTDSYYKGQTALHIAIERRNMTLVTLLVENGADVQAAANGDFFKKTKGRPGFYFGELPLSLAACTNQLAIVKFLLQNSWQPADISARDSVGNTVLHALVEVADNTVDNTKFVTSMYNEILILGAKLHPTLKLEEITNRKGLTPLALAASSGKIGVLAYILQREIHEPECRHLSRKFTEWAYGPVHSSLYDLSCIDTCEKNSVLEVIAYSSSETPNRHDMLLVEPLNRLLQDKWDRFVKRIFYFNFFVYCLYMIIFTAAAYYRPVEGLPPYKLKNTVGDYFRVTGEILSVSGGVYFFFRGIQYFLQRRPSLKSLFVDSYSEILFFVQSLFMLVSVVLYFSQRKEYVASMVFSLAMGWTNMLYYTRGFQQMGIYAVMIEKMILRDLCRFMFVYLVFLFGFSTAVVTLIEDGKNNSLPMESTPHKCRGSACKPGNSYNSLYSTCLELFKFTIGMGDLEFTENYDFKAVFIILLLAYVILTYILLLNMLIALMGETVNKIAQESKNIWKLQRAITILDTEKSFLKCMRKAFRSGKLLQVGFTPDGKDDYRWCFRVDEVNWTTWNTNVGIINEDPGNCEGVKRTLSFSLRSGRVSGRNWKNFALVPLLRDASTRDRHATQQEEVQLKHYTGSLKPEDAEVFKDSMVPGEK
Sequence of UniProt Q92847 (whole entry, looked up): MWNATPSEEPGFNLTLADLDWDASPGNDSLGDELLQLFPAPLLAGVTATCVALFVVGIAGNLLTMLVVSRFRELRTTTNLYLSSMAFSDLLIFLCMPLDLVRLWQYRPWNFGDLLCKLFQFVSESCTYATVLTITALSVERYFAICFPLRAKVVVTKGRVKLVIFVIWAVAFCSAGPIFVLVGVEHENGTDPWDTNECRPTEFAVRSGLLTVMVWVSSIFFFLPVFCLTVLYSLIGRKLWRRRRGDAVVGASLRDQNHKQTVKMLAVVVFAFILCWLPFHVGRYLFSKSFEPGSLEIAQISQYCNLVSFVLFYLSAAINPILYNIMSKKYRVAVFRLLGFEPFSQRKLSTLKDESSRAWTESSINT
Sequence of UniProt Q9NSD7 (whole entry, unmodified, looked up): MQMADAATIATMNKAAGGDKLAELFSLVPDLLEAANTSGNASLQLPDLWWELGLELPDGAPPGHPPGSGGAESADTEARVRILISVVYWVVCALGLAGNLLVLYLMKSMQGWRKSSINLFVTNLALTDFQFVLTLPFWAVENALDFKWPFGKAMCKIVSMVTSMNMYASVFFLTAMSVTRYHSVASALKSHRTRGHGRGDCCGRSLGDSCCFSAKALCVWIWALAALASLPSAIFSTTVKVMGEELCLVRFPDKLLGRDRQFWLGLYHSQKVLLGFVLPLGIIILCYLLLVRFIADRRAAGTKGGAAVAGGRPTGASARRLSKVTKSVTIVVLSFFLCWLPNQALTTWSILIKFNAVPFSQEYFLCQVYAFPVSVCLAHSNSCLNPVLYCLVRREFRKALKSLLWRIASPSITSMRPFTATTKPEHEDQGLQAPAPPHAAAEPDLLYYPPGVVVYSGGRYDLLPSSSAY
Sequence of UniProt P02769 (whole entry, looked up): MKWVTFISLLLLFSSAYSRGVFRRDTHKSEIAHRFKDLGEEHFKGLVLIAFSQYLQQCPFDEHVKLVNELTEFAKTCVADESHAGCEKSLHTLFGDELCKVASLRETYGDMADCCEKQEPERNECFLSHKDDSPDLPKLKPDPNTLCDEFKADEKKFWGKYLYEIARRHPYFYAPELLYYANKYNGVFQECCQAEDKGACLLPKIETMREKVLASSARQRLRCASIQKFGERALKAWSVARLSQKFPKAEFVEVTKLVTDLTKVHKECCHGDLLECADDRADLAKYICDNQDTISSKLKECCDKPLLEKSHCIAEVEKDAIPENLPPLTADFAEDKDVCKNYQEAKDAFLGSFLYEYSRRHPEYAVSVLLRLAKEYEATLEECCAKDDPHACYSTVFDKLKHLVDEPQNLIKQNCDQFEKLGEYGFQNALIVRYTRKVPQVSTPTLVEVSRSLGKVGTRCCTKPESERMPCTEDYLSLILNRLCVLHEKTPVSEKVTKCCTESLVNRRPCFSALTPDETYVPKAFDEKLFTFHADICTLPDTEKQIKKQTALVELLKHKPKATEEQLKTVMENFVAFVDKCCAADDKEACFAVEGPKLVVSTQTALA
Sequence of UniProt P06748 (whole entry, looked up): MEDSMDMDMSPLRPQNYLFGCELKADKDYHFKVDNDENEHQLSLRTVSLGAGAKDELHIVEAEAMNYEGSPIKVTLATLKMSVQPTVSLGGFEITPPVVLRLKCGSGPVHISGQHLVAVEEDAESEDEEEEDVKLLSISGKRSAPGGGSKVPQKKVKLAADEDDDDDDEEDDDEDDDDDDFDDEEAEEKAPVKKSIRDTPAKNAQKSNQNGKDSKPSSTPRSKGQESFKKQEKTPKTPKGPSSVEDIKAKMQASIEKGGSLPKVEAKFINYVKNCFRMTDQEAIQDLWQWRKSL

For `CN(C)c1ccc(C#CCOC(=O)[C@]2(C)C=C(C(=O)OC(C)(C)C)C(=O)CC2)cc1`, the fraction bound was 0.295 (MAPK8; D-peptide binding, inhibitor, FP peptide displacement; 250 µM; lower is stronger displacement).
For `CCCCCC(O)/C=C/C=O` (stereo not shown), “isoTOP-ABPP competition ratio” read 14 (REEP5 (Homo sapiens, UniProt Q00765); competitive isoTOP-ABPP; Ramos soluble proteome; 100 µM, 60 min, added: iodoacetamide probe; reference: DMSO over compound-treated, higher = stronger cysteine blockade).
Under “HAB1 phosphatase activity”, `O=[N+]([O-])c1cc(Br)cc([N+](=O)[O-])c1NS(=O)(=O)c1ccc(Br)cc1` is recorded as 0.109 a.u. and 0.099 a.u. and 0.088 a.u. (PYL10, with HAB1 (Arabidopsis thaliana, UniProt Q8H1R0); antagonist; 80 µM, added: ABA 5 µM; higher = more HAB1 activity).
Under “remaining current fraction”, `C/C1=C\CC/C(C)=C/CC(C)(C)/C=C/C1` is recorded as 0.07 ± 0.03 (Trpv1 (Rattus norvegicus, UniProt O35433); inhibitor, outside-out patch clamp; 100 µM, 5 min, added: pH 5.5 activation).
`CCOC(=O)C(CC)(CCCSCCOCCOCCN)NC(=O)c1ccc(C2CC2)c(Cc2ccc(F)cc2)n1` (racemic) gave an Emax of 93% (Cnr2; cAMP, agonist).
For `N#CN1CC[C@H](C(=O)Nc2nc3c(s2)CN(C(=O)CN=[N+]=[N-])CC3)C1`, “total spectral count” read 12 (EEF2; click pull-down LC-MS/MS; HEK293T cells).
`N=C(N)NCCC[C@H](NC(=O)[C@@H]1CCCN1C(=O)[C@H](CCCNC(=N)N)NC(=O)[C@@H]1CCCN1C(=O)[C@H](CCCNC(=N)N)NC(=O)[C@@H]1CCCN1C(=O)[C@H](CCCNC(=N)N)NC(=O)[C@@H]1CCCN1C(=O)[C@H](CCCNC(=N)N)NC(=O)[C@@H]1CCCN1C(=O)[C@H](CCCNC(=N)N)NC(=O)[C@@H]1CCCN1C(=O)[C@H](CCCNC(=N)N)NC(=O)[C@@H]1CCCN1C(=O)[C@H](CCCNC(=N)N)NC(=O)[C@@H]1CCCN1C(=O)[C@H](CCCNC(=N)N)NC(=O)[C@@H]1CCCN1C(=O)[C@H](CCCNC(=N)N)NC(=O)[C@@H]1CCCN1C(=O)[C@H](CCCNC(=N)N)NC(=O)[C@@H]1CCCN1C(=O)[C@H](CCCNC(=N)N)NC(=O)[C@@H]1CCCN1C(=O)[C@H](CCCNC(=N)N)NC(=O)[C@@H]1CCCN1C(=O)[C@H](CCCNC(=N)N)NC(=O)[C@@H]1CCCN1C(=O)[C@H](CCCNC(=N)N)NC(=O)[C@@H]1CCCN1C(=O)[C@H](CCCNC(=N)N)NC(=O)[C@@H]1CCCN1C(=O)[C@H](CCCNC(=N)N)NC(=O)[C@@H]1CCCN1C(=O)[C@H](CCCNC(=N)N)NC(=O)[C@@H]1CCCN1C(=O)[C@H](CCCNC(=N)N)NC(=O)[C@@H]1CCCN1C(=O)[C@H](CCCNC(=N)N)NC(=O)[C@@H]1CCCN1C(=O)[C@H](CCCNC(=N)N)NC(=O)[C@@H]1CCCN1C(=O)[C@H](CCCNC(=N)N)NC(=O)[C@@H]1CCCN1C(=O)[C@H](CCCNC(=N)N)NC(=O)[C@@H]1CCCN1C(=O)[C@H](Cc1ccc(O)cc1)NC(=O)[C@H](CO)NC(=O)CN)C(=O)O` — result for “radius of gyration”: 106 ± 5.09 Å (Nucleophosmin (NPM1, Homo sapiens, UniProt P06748); SANS Guinier analysis; 2 molar excess over NPM1, 25 °C).
`CCCCCC=CC=C1C(=O)C=CC1CC=CCCCC(=O)O` (stereo not shown): “isoTOP-ABPP competition ratio” 2 (EEF2; competitive isoTOP-ABPP; Ramos soluble proteome; 100 µM, added: iodoacetamide probe; reference: DMSO over compound-treated, higher = stronger cysteine blockade).
`CCCn1ccc2c(N3CCN(CCCCOc4ccc5c(c4)NC(=O)CC5)CC3)cccc21` has a log(τ/KA) of 6.7 ± 0.05 (D(2) dopamine receptor, long isoform (DRD2, Homo sapiens, UniProt P14416); β-arrestin2 recruitment, agonist, Tango; human cells).
The Emax of `CC[C@H](C)[C@@H]1NC(=O)[C@H](Cc2ccccc2)NC(=O)[C@H](CCC(=O)O)NC(=O)[C@H](CCCNC(=N)N)NC(=O)CNC(=O)[C@@H](NC(=O)[C@H](CC(C)C)NC(=O)[C@H](CCCNC(=N)N)NC(=O)[C@@H](NC(=O)CNC(=O)[C@H](Cc2ccc(O)cc2)NC(=O)[C@@H]2CCCN2C(=O)[C@H](C)NC(=O)[C@H](C)NC(=O)[C@@H](N)CCCNC(=N)N)C(C)C)CSSC[C@@H]2NC(=O)[C@@H](NC(=O)[C@H](CO)NC(=O)[C@H](CO)NC(=O)[C@H](CO)NC(=O)[C@H](CC(C)C)NC(=O)CNC(=O)[C@H](C)NC(=O)[C@H](CC(C)C)NC(=O)[C@@H](NC(=O)[C@@H](N)CC(=O)O)C(C)C)CSSC[C@H](NC(=O)CNC(=O)[C@H](Cc3c[nH]c4ccccc34)NC(=O)[C@H](CCCCN)NC2=O)C(=O)N[C@@H](CO)C(=O)N[C@@H](CCCCN)C(=O)N[C@@H](CO)C(=O)N[C@@H](CCC(=O)O)C(=O)N[C@@H]([C@@H](C)CC)C(=O)N[C@@H](CO)C(=O)N[C@@H](CO)C(=O)N[C@@H](CC(C)C)C(=O)N[C@H](C(=O)O)CSSC[C@@H](C(=O)NCC(=O)NCC(=O)N[C@@H](CO)C(=O)N[C@@H](CCCNC(=N)N)C(=O)N[C@@H](Cc2c[nH]c3ccccc23)C(=O)O)NC(=O)[C@H]([C@@H](C)O)NC(=O)[C@H](Cc2ccccc2)NC(=O)[C@H]([C@@H](C)CC)NC(=O)[C@H](C(C)C)NC(=O)[C@H](C)NC(=O)[C@H](CCCNC(=N)N)NC1=O` is reported as 119 ± 5.19% (RXFP3 (Homo sapiens, UniProt Q9NSD7, L246A); HEK-293T; reference: wild type).
The Emax of `COc1ccc(C(=O)c2c(C(=O)NCCCN(C)C)oc3ccc(Cl)cc3c2=O)cc1OC` is reported as 106 ± 1.6% (GHSR (Homo sapiens, UniProt Q92847); SRF-RE reporter gene; HEK293T).
The Emax of `CCOC(=O)[C@](CC)(CCCSCCOCCOCCNC(=O)c1ccc(C(=O)[O-])c(C2=C3C=CC(=[N+](C)C)C=C3[Si](C)(C)c3cc(N(C)C)ccc32)c1)NC(=O)c1ccc(C2CC2)c(Cc2ccc(F)cc2)n1` is reported as 93% (Cnr2; cAMP, agonist).
Under “normalized kinase activity”, `C#CCOC(=O)[C@]1(C)C=C(C(=O)OC(C)(C)C)C(=O)CC1` is recorded as 0.997 and 1.05 and 1.06 (MAPK8; enzyme activity, D-SENSOR; 0.1829 µM, single replicate).
`CCC1(CC)C(=O)N(c2cc(C(=O)OC)cc(C(=O)N3CCN(Cc4ccc(Br)cc4)CC3)c2)C1=O` — result for “activity vs control”: 26% (Dipeptidyl peptidase 8; enzyme activity, inhibitor; 5 µM).
The fraction bound of `COC(=O)[C@@]1(C)C=C(C(=O)OC(C)(C)C)C(=O)CC1` is reported as 0.168 (MAPK8; D-peptide binding, inhibitor, FP peptide displacement; 500 µM; lower is stronger displacement).
For `Clc1ccc(C(Cn2cncn2)OCc2ccc(Br)cc2)c(Cl)c1` (stereo not shown), “activity vs control” read 110% (ULK1 (Homo sapiens, UniProt O75385); enzyme activity, inhibitor, ADP detection; 0.1 µM).
For `COc1ccc(C(=O)N2c3ccc(F)cc3[C@@H](Nc3ccccc3)C[C@H]2C)cc1`, the pIC50 Z-score was -0.58 (Ecdysone receptor (Aedes albopictus, UniProt Q9U3Y4); ligand binding, inhibitor; intact cells; added: [3H]ponasterone A; direction not given).
The selectivity ratio of `O=C1N(c2cccc(CN3CCN(Cc4ccc(Br)cc4)CC3)c2)C(=O)C12CCCCC2` is reported as 3 (Dipeptidyl peptidase 8; inhibitor; added: GP-AMC substrate; reference: Ki' DPP9 over Ki' DPP8).
`COC(=O)[C@@]1(Cc2ccccc2)C=C(C(=O)OC(C)(C)C)C(=O)CC1` has a fraction bound of -0.0933 (MAPK8; D-peptide binding, inhibitor, FP peptide displacement; 125 µM; lower is stronger displacement).
The -TΔS of `CC[C@H](C)[C@H](NC(=O)[C@@H](NC(=O)[C@@H](NC(=O)[C@@H](NC(=O)[C@H](CCCNC(=N)N)NC(=O)[C@H](CCC(=O)O)NC(=O)[C@H](CCC(=O)O)NC(=O)[C@H](C)NC(=O)[C@H](CCC(=O)O)NC(=O)CNC(=O)[C@H](C)NC(=O)CN)C(C)C)C(C)C)C(C)C)C(=O)N[C@@H](CC(=O)O)C(=O)N[C@@H](CC(=O)O)C(=O)N[C@@H](CC(=O)O)C(=O)N[C@@H](CCC(=O)O)C(=O)N[C@@H](CC(=O)O)C(=O)N[C@@H](CC(=O)O)C(=O)N[C@@H](CC(=O)O)C(=O)N[C@@H](C)C(=O)N[C@@H](CCC(=O)O)C(=O)N[C@@H](CC(N)=O)C(=O)N[C@@H](CO)C(=O)N[C@@H](CO)C(=O)N[C@@H](CO)C(=O)N[C@@H](CCCNC(=N)N)C(=O)N[C@@H](Cc1ccc(O)cc1)C(=O)O` is reported as -8.34 ± 0.02 kcal/mol (Small ubiquitin-related modifier 2 (Homo sapiens, UniProt P61956, C48A); isothermal titration calorimetry; pH 7.4, SUMO2 construct).
`C=C1CC2(C(=O)OC)C=C(C(=O)OC(C)(C)C)C(=O)C1C2` (stereo not shown) gave a fraction bound of 0.182 (MAPK8; D-peptide binding, inhibitor, FP peptide displacement; 250 µM; lower is stronger displacement).
The fluorescence increase of `CN1CCN(c2ccc3[nH]c(-c4ccc5[nH]c(-c6ccc(OCCCCNC(=O)c7ccc8c(c7)C(=O)OC87c8ccc(N(C)C)cc8[Si](C)(C)c8cc(N(C)C)ccc87)cc6)nc5c4)nc3c2)CC1` is reported as 1.5 fold (Albumin (ALB, Bos taurus, UniProt P02769); covalent crosslinking, fluorescence, in-gel, SDS-PAGE; 24 h, 37 °C; reference: 4-regioisomer).

Excerpt of the above:
For `Clc1ccc(C(Cn2cncn2)OCc2ccc(Br)cc2)c(Cl)c1` (stereo not shown), “activity vs control” read 110% (ULK1 (Homo sapiens, UniProt O75385); enzyme activity, inhibitor, ADP detection; 0.1 µM).
The Emax of `CC[C@H](C)[C@@H]1NC(=O)[C@H](Cc2ccccc2)NC(=O)[C@H](CCC(=O)O)NC(=O)[C@H](CCCNC(=N)N)NC(=O)CNC(=O)[C@@H](NC(=O)[C@H](CC(C)C)NC(=O)[C@H](CCCNC(=N)N)NC(=O)[C@@H](NC(=O)CNC(=O)[C@H](Cc2ccc(O)cc2)NC(=O)[C@@H]2CCCN2C(=O)[C@H](C)NC(=O)[C@H](C)NC(=O)[C@@H](N)CCCNC(=N)N)C(C)C)CSSC[C@@H]2NC(=O)[C@@H](NC(=O)[C@H](CO)NC(=O)[C@H](CO)NC(=O)[C@H](CO)NC(=O)[C@H](CC(C)C)NC(=O)CNC(=O)[C@H](C)NC(=O)[C@H](CC(C)C)NC(=O)[C@@H](NC(=O)[C@@H](N)CC(=O)O)C(C)C)CSSC[C@H](NC(=O)CNC(=O)[C@H](Cc3c[nH]c4ccccc34)NC(=O)[C@H](CCCCN)NC2=O)C(=O)N[C@@H](CO)C(=O)N[C@@H](CCCCN)C(=O)N[C@@H](CO)C(=O)N[C@@H](CCC(=O)O)C(=O)N[C@@H]([C@@H](C)CC)C(=O)N[C@@H](CO)C(=O)N[C@@H](CO)C(=O)N[C@@H](CC(C)C)C(=O)N[C@H](C(=O)O)CSSC[C@@H](C(=O)NCC(=O)NCC(=O)N[C@@H](CO)C(=O)N[C@@H](CCCNC(=N)N)C(=O)N[C@@H](Cc2c[nH]c3ccccc23)C(=O)O)NC(=O)[C@H]([C@@H](C)O)NC(=O)[C@H](Cc2ccccc2)NC(=O)[C@H]([C@@H](C)CC)NC(=O)[C@H](C(C)C)NC(=O)[C@H](C)NC(=O)[C@H](CCCNC(=N)N)NC1=O` is reported as 119 ± 5.19% (RXFP3 (Homo sapiens, UniProt Q9NSD7, L246A); HEK-293T; reference: wild type).
